Assay results of several laboratories.
Numbered parts are unrelated; each lists some results of a single study. Positions count from the first letter of the parent shown.

Set 1
Target: Histone acetyltransferase KAT6A, winged helix 1, GST fusion (KAT6A, Homo sapiens, UniProt Q92794, residues 1-85)
Technique: protein binding microarray
Form: double-stranded DNA, one strand shown
Matrix: in vitro
Concentration: not given
Notes: 8-mer, flanks averaged, mean of 2 arrays, mostly near background
Reference: not given
Reading: higher = stronger binding
Residues (chain): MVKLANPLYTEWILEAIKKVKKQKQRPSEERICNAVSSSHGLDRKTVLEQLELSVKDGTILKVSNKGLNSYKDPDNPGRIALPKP
Strand | E-score
CCGAACGC | 0.186
CCTAGGCA | -0.215
CCGTTTCA | 0.16
AAATATAG | 0.0563
AACCCCTC | -0.152
CATTATAA | -0.0693
CGGTGTCC | 0.331
AGTCCAAC | -0.218
AAGATACG | 0.0288
CTAATATC | -0.097
ATCGCGTC | 0.244
TGACATCA | -0.128

Set 2
Target: ABI1, truncated, D143A, DHFR fusion (Arabidopsis thaliana)
Technique: DHFR PCA, deep sequencing
Matrix: yeast
Notes: methotrexate growth selection, single substitutions
Together with: (+)-ABA 0 µM
Reference: wild-type fitted maximum
Reading: higher = stronger binding
Parent: PYL1, truncated, DHFR fusion (Arabidopsis thaliana); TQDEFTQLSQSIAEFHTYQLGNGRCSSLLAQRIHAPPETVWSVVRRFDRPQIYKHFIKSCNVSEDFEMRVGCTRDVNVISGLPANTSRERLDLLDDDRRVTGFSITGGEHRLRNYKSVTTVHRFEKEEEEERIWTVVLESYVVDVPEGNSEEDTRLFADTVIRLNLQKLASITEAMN
Substitution | relative binding score [%]
Q7H | 23
E147Q | 10.9
N85Q | 54.4
E109V | 2.42
N165G | 4.52
E130A | 34.5
V136T | -2.21

Set 3
Target: CCNB1, cyclin fold, Cln2 fusion (human)
Technique: yeast growth competition, sequencing
Matrix: yeast
Notes: weak parent motif
Reference: not given
Reading: higher = stronger binding
Parent: CDC6 docking peptide (human); TLKGRRLVFDNQL
Substitution | normalised enrichment score
V8R | 0.708
G4S | -1.7
D10E | -1.03
K3Y | 0.632
T1V | 1.15
L7E | 0.543
K3I | 1.11
K3D | -0.0255
K3A | 0.161

Further values, each from its own experiment
Substance | target | test | test system | setting | how to read | endpoint | result
PhoQ, residues 284 288 289 292 302 303 TTSMTC | PhoP, residues 12 14 15 18 19 MHTVL (Escherichia coli, UniProt P23836) | Sort-seq, refers to: YFP reporter | E. coli | PhoQ-PhoP variant library, together with: 10 µM Mg2+ | reference: high Mg2+ state, higher = stronger signaling | fold induction | 9.29

Repeated from above (set 1):
Strand | E-score
CATTATAA | -0.0693
AAATATAG | 0.0563
CTAATATC | -0.097
